Experimental data gathered from unrelated publications.
Every numbered part comes from another study and shows a few of its results, in no order. Substitutions count along the parent as printed.
Sequence of UniProt Q9Y4K4 (whole entry, looked up): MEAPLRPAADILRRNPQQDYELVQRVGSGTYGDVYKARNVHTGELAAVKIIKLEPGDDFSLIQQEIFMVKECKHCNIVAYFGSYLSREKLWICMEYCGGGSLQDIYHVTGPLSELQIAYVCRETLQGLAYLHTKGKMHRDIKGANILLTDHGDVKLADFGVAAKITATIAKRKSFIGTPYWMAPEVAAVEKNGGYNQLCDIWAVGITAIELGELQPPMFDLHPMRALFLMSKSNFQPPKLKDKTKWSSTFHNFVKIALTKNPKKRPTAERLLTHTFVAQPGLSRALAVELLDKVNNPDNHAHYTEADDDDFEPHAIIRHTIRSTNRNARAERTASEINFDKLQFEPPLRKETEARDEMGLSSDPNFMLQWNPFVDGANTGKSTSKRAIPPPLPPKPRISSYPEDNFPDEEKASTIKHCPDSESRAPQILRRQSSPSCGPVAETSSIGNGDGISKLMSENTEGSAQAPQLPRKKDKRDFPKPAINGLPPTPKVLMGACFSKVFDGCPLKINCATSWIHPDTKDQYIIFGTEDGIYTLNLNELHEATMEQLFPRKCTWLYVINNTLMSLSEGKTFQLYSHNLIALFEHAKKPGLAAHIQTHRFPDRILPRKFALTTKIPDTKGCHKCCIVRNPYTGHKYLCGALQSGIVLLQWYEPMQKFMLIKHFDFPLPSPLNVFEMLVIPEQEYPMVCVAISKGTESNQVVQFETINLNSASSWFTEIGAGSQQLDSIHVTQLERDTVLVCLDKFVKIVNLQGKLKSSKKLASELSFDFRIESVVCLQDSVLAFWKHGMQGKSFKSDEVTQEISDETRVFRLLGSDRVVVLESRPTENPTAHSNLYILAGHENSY

Set 1
Target: Phosphate system positive regulatory protein PHO4, full length, GST-tagged (PHO4, Saccharomyces cerevisiae, UniProt P07270, residues 1-312)
Technique: competition protein-binding microarray
Molecule type: double-stranded DNA, one strand shown
Sample: in vitro
Concentration: 2 µM
Setting: whole 60-bp probe, lowest competitor level
Added: Cbf1 competitor, 0.05 µM
Direction: higher = stronger binding
Target sequence (chain): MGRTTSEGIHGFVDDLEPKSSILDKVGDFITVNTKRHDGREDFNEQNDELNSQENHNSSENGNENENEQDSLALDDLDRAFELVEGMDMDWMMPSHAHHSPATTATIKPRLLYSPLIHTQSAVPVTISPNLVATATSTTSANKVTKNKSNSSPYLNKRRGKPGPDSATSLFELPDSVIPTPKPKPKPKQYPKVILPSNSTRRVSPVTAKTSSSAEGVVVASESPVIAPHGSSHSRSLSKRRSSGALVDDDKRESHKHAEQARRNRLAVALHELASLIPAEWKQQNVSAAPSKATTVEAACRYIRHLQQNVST
Oligonucleotide	fluorescence intensity [a.u.]
ACTCCATATCCTTATCATGTGCCGTAGTACATTGTGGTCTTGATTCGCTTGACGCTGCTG	11600
TATGGGTTGTCTGAACCCGTGACTCGTAGATCAGAAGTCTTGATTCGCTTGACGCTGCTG	6160
AAAGCCGTTCTTCGTCACGTGACTCGAAGTTGTAGCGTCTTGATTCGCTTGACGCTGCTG	14600
CCGCGAGTTCGTAGGCACGTTAGTTGGTTTCGACGAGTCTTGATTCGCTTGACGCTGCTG	8230
CCCTAAAGTTTGGTGCACGTGGTTTTCTCTCGCTCTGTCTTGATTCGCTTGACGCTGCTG	16600
AAATTACTAAGTTGTCAAGTGGGTGACGCCGTATGAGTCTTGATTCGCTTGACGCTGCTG	4010
CTTCTGTAAATTTGTCACGCTACTTGACGCGCCCCGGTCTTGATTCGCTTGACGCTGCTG	5480
TCTGGATCAGAAGATTACGTGTCCTGAGAAGATTATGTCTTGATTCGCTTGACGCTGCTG	4880

Set 2
Target: Interferon regulatory factor 7, full length, phosphomimetic (IRF7, Homo sapiens, UniProt Q92985, residues 1-503, S471D/S472D/S475D/S476D/S477D/S483D/S484D/S487D)
Technique: protein-binding microarray
Molecule type: double-stranded DNA, one strand shown
Sample: in vitro
Concentration: 2200 nM top
Setting: 60-bp whole probe
Added: salmon DNA 0.4 mg/ml
Baseline: random background probes
Direction: higher = stronger binding
Shared flanks, not repeated: GCCTAGCAC … GTCTTGATTCGCTTGACGCTGCTG
Target sequence (chain): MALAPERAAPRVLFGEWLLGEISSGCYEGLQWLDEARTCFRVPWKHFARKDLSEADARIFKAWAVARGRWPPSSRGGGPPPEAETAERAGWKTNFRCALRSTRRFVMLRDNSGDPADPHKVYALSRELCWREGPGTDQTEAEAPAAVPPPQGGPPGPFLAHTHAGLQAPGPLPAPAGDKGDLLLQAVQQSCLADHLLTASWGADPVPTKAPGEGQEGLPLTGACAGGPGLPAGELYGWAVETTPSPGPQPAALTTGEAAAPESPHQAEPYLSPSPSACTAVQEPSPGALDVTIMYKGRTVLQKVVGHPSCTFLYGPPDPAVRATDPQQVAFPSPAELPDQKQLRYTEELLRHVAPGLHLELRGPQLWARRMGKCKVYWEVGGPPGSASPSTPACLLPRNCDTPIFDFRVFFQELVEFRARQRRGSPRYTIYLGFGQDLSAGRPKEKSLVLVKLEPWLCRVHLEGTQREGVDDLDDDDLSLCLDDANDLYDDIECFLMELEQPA
Oligonucleotide	fitted relative affinity [z-score]
TTAGATTTCAGTAACGATTAGTGCTAG	-0.229
TTTTGCTTTCCTTTATGTACGTGCTAG	8.09
TTAGATATCAGTATCGATTAGTGCTAG	0.287
TCAGTTTTCAGCTGTTTTACTGTGCTA	1.95
GACGGTGTCCTTATCCTGACGTGCTAG	0.493
TTAGGTATCGGGTTTCGGTTTGTGCTA	8.86
TTAGGTTTCTGGTTTCGGTTAGTGCTA	7.9
GACGTACTGGGGTTTCGGGACGTGCTA	1.17

Set 3
Target: TEF, bZIP domain (human)
Technique: DHFR protein complementation
Sample: yeast
Setting: single substitutions, most at no-binding floor
Baseline: wild-type JUN-FOS pair
Direction: higher = stronger binding
Parent: JUN, bZIP domain (human); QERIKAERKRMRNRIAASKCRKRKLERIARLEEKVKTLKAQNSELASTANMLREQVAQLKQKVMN; partner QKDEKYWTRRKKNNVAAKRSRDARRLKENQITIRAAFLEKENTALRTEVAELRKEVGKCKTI
Substitution	binding fitness
I28S	-1.36 natural log
K39I	-0.889 natural log
A46T	-1.34 natural log
L52A	-1.52 natural log
I28C	-1.34 natural log
K34M	-1.48 natural log
R53K	-1.23 natural log
V56N	-1.56 natural log

Other studies, line by line
Compound	target	observed	action	concentration	baseline	endpoint	result
Cc1cn(-c2cc(NC(=O)c3ccc(C)c(Nc4nccc(-c5cccnc5)n4)c3)cc(C(F)(F)F)c2)cn1	Mitogen-activated protein kinase kinase kinase kinase 5 (MAP4K5, Homo sapiens, UniProt Q9Y4K4)	enzyme activity	inhibitor	0.5 µM	control	remaining activity	100%

A few entries again (set 1):
Oligonucleotide	fluorescence intensity [a.u.]
ACTCCATATCCTTATCATGTGCCGTAGTACATTGTGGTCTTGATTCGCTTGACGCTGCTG	11600
TATGGGTTGTCTGAACCCGTGACTCGTAGATCAGAAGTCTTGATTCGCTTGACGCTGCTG	6160
CTTCTGTAAATTTGTCACGCTACTTGACGCGCCCCGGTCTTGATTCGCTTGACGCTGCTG	5480
